Experimental data gathered from unrelated publications.
Each numbered part is a random draw from the data of one study; scales do not carry over between parts. Changes are numbered by the printed parent chain.
UniProt O15294, sequence (whole entry, looked up): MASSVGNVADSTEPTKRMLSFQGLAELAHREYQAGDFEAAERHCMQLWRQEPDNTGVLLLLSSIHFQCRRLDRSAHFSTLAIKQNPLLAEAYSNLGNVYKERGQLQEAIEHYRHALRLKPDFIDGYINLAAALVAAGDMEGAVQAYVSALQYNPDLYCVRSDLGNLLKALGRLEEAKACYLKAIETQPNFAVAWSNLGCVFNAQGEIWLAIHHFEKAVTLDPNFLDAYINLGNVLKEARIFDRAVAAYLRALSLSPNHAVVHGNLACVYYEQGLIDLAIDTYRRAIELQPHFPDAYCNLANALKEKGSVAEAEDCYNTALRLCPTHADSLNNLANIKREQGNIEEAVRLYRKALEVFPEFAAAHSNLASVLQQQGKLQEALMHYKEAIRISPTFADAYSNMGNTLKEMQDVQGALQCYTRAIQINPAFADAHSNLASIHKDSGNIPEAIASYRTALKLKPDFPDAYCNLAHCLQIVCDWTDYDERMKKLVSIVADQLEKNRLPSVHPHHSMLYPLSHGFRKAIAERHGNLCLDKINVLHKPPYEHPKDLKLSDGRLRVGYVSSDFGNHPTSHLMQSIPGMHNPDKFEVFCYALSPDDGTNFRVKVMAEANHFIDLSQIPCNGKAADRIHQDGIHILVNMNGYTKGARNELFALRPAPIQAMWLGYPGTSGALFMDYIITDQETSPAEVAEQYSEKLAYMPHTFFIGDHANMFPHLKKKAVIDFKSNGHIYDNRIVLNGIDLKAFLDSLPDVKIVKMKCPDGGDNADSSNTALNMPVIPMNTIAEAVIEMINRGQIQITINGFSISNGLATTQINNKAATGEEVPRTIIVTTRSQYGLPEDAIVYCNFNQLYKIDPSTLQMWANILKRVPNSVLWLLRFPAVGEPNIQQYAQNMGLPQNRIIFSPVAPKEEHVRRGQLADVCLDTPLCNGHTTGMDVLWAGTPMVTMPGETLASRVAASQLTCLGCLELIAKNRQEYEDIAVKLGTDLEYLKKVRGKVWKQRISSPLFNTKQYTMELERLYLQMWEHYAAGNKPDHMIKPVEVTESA

Series 1
Target: Microphthalmia-associated transcription factor, full length (MITF, Homo sapiens, UniProt O75030-10, residues 1-413)
Method: protein-binding microarray
Form: hairpin DNA
Sample: in vitro
Concentration: not given
Notes: whole hairpin DNA, median over replicate spots
Reference: not given
Direction: higher = stronger binding
| Strand | median fluorescence [a.u.] |
| --- | --- |
| GAGGCCTAGCACATGCTGCCTCCTGGCAGCATGTGCTAGGCCTCACACTC | 11200 |
| CACTTAGCACGTGATTTTGGTCCTCCAAAATCACGTGCTAAGTGACACTC | 26500 |
| CACTTAGCACGTGCGTTTGGTCCTCCAAACGCACGTGCTAAGTGACACTC (5mC at 30) | 18400 |
| CACTTAGCACCGGATTTTGGTCCTCCAAAATCCGGTGCTAAGTGACACTC (5mC at 11 33) | 4300 |
| CACTCGGCACGTGATTTTGGTCCTCCAAAATCACGTGCCGAGTGACACTC (5mC at 5 39) | 25000 |
| GAGGCCTAGCACGTGCCGCCTCCTGGCGGCACGTGCTAGGCCTCACACTC (5mC at 17) | 24800 |
| GAGGCCTACCACGTGCTGCCTCCTGGCAGCACGTGGTAGGCCTCACACTC (5mC at 9) | 23600 |
| CACTTAGCACCGGATTTTGGTCCTCCAAAATCCGGTGCTAAGTGACACTC (5mC at 11) | 4570 |

Series 2
Target: Protein C-ets-1 (ETS1, Homo sapiens, UniProt P14921, residues 1-441, full length assumed)
Method: protein-binding microarray
Form: double-stranded DNA, one strand shown
Sample: in vitro
Concentration: not given
Notes: k-mer, scored over probes, only values ≥0.25
Direction: higher = stronger binding
Target sequence (chain): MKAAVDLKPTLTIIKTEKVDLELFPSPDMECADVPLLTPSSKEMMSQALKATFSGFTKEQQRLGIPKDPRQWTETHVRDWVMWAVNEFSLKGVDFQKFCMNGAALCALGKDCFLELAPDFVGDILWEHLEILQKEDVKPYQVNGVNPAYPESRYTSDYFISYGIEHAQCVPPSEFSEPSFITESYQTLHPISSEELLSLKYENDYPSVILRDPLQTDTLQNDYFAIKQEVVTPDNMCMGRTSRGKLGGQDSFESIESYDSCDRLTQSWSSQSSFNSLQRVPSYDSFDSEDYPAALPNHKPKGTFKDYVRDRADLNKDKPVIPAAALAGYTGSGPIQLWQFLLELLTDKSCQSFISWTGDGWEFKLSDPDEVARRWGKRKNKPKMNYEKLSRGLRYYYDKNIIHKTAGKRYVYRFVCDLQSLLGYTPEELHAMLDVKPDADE
| Strand | E-score |
| --- | --- |
| ATACCGGG | 0.261 |
| ACGGGAAG | 0.406 |
| CCCCGTCC | 0.293 |
| ACCCGGGA | 0.309 |
| GAATCGGA | 0.301 |
| ATCCGGTA | 0.475 |
| AAGTTCCG | 0.44 |
| CCACCACA | 0.278 |

Series 3
Target: CEP164, C-terminal peptide (human)
Method: DHFR complementation, deep sequencing
Sample: yeast
Notes: single substitutions, model-inferred values
Reference: wild type
Direction: higher = weaker binding
Starting sequence: PDZK1, PDZ domain 2 (human); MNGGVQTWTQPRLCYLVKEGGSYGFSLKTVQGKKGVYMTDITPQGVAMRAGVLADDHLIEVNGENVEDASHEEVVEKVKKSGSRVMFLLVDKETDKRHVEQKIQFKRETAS; partner HNRVKVYRF
| Variant | binding free energy change |
| --- | --- |
| G21H | 0.0705 kcal/mol |
| K102T | -0.0665 kcal/mol |
| G3L | 0.0504 kcal/mol |
| G4Q | -0.045 kcal/mol |
| V36M | -0.304 kcal/mol |
| S70F | -0.00535 kcal/mol |
| K28P | 0.988 kcal/mol |
| Q44W | 0.00501 kcal/mol |

Further values, each from its own experiment
| Sequence | target | test | test system | conditions | scale | measurement | result |
| --- | --- | --- | --- | --- | --- | --- | --- |
| HEYPATHYHQQRKHY | UDP-N-acetylglucosamine--peptide N-acetylglucosaminyltransferase 110 kDa subunit (OGT, Homo sapiens, UniProt O15294) | binding, phage display NGS | peptide | concentration not given | reference: input library | enrichment fold change | 3.02 |
